Measured values pooled from the literature.
Lines come from different studies, so protocols differ.
Organism: Klebsiella pneumoniae

CCCNc1nc(F)c2c(c1O)C(=O)C1=C(O)[C@]3(O)C(=O)C(C(N)=O)=C(O)[C@@H](N(C)C)[C@@H]3C[C@@H]1C2.Cl.Cl  MIC (tet(A)-carrying): 32 µg/mL
C[C@@H](O)[C@H]1C(=O)N2C(C(=O)O)=C(SCCN=CN)C[C@H]12  MIC (K2; after induction, with: ceftazidime-avibactam 4/1): 32 µg/mL
NC(=O)[C@@H]1CC[C@@H]2CN1C(=O)N2OS(=O)(=O)O  MIC (ATCC 1705 KPC NDM-1 ESBL; compound alone): 16 µg/mL
CC[C@H](C)[C@H](N)C(=O)N[C@@H](CCCNC(=N)N)C(=O)N[C@H](C(=O)N[C@@H](Cc1c[nH]c2ccccc12)C(=O)N[C@@H](Cc1c[nH]c2ccccc12)C(=O)N[C@@H](CCCCN)C(=O)N[C@H](C(=O)N[C@H](C(=O)N[C@@H](CCCNC(=N)N)C(=O)N[C@@H](CCCCN)C(=O)N[C@@H](Cc1c[nH]c2ccccc12)C(=O)N[C@@H](CCCCN)C(=O)N[C@@H](C)C(=O)N[C@H](C(=O)N[C@@H](Cc1c[nH]c2ccccc12)C(=O)N[C@@H](Cc1c[nH]cn1)C(N)=O)[C@@H](C)CC)C(C)C)[C@@H](C)CC)C(C)C  MIC (broth dilution; ATCC 700603): 50 µM
CN1C(=O)Cc2ccc(F)c(CNCCCC3CN(c4ccc5c(n4)NC(=O)CO5)C(=O)O3)c21 (stereo not shown)  MIC (ATCC 13883): 0.5 µg/mL
COc1ccc2ccc(O)c(/C=N/[C@H]3CCCC[C@H]3/N=C/c3c(O)cccc3F)c2c1  MIC (bacterial growth, broth microdilution; carbapenem-resistant clinical isolate): > 40 µM
C[C@@H](O)[C@H]1C(=O)N2C(C(=O)O)=C(S[C@@H]3CN[C@H](C(=O)N(C)C)C3)[C@H](C)[C@H]12  MIC (broth microdilution; ATCC 43816 acrAB overexpressor): < 0.5 µg/mL
CC(=O)N[C@@H](CCCCN)C(=O)N[C@@H](CCCCN)C(=O)N[C@@H](C)C(=O)N[C@@H](CC(C)C)C(=O)N[C@@H](CCCCN)C(=O)N[C@@H](CC(C)C)C(=O)N[C@@H](CC(C)C)C(=O)N[C@@H](CCCCN)C(=O)N[C@@H](CCCCN)C(=O)N1CCC[C@H]1C(=O)N[C@@H](CC(C)C)C(=O)N[C@@H](CCCCN)C(=O)N[C@@H](CC(C)C)C(=O)N[C@@H](CC(C)C)C(=O)N[C@@H](CCCCN)C(N)=O  MIC (broth microdilution; ATCC 700603; 18 h, 37 °C, compound alone): > 80 µM
Cc1cc(NS(=O)(=O)c2ccc(N)cc2)no1  MIC (broth microdilution; ATCC 43816 acrAB overexpressor): 128 µg/mL
CC[C@H](C)[C@H](NC(=O)CN)C(=O)NCC(=O)N[C@@H](C)C(=O)N[C@H](C(=O)N[C@@H](CC(C)C)C(=O)N[C@@H](CCCCN)C(=O)N[C@H](C(=O)N[C@@H](CC(C)C)C(=O)N[C@H](C(=O)N[C@H](C(=O)NCC(=O)N[C@@H](CC(C)C)C(=O)N1CCC[C@H]1C(=O)N[C@@H](C)C(=O)N[C@@H](CC(C)C)C(=O)N[C@H](C(=O)N[C@@H](CO)C(=O)N[C@@H](Cc1c[nH]c2ccccc12)C(=O)N[C@H](C(=O)N[C@@H](CCCCN)C(=O)N[C@@H](CCCNC(=N)N)C(=O)N[C@@H](CCCCN)C(=O)N[C@@H](CCCNC(=N)N)C(=O)N[C@@H](CCC(N)=O)C(=O)N[C@@H](CCC(N)=O)C(N)=O)[C@@H](C)CC)[C@@H](C)CC)[C@@H](C)O)[C@@H](C)O)C(C)C)C(C)C  MIC (NCCP 15782 carbapenem-resistant): 16 µM

A few entries again:
CC[C@H](C)[C@H](N)C(=O)N[C@@H](CCCNC(=N)N)C(=O)N[C@H](C(=O)N[C@@H](Cc1c[nH]c2ccccc12)C(=O)N[C@@H](Cc1c[nH]c2ccccc12)C(=O)N[C@@H](CCCCN)C(=O)N[C@H](C(=O)N[C@H](C(=O)N[C@@H](CCCNC(=N)N)C(=O)N[C@@H](CCCCN)C(=O)N[C@@H](Cc1c[nH]c2ccccc12)C(=O)N[C@@H](CCCCN)C(=O)N[C@@H](C)C(=O)N[C@H](C(=O)N[C@@H](Cc1c[nH]c2ccccc12)C(=O)N[C@@H](Cc1c[nH]cn1)C(N)=O)[C@@H](C)CC)C(C)C)[C@@H](C)CC)C(C)C  MIC (broth dilution; ATCC 700603): 50 µM
CN1C(=O)Cc2ccc(F)c(CNCCCC3CN(c4ccc5c(n4)NC(=O)CO5)C(=O)O3)c21 (stereo not shown)  MIC (ATCC 13883): 0.5 µg/mL
